Measured values gathered from unrelated publications.
Each numbered part is a random draw from the data of one study; scales do not carry over between parts.

Series 1 — technique: protein binding microarray; form: double-stranded DNA, one strand shown; sample: in vitro; concentration: not given; baseline: not given; direction: higher = stronger binding
Target: Histone acetyltransferase KAT6A, winged helix 1, GST fusion (KAT6A, Homo sapiens, UniProt Q92794, residues 1-85)
Setting: 8-mer, flanks averaged, mean of 2 arrays, mostly near background
Residues (chain): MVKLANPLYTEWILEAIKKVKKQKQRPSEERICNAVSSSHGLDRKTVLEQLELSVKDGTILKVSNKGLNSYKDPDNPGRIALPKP
Sequence	E-score
CGGCTCGA	0.207
AGGCGTTG	0.14
CATTCGAG	-0.0981
CTCCAAAG	-0.215
AACCTCTC	0.0433
CTGCAAAC	-0.218
AGGCGGGG	0.198

Series 2 — technique: RNA Bind-n-Seq; form: RNA; sample: in vitro; concentration: 20 nM; setting: 6-mer, flanks averaged, single round; together with: 150 mM LiCl; baseline: input library; direction: higher = stronger binding
Target: TAR DNA-binding protein 43, full length, His tag (TARDBP, Homo sapiens, UniProt Q13148, residues 1-414)
Sequence	6-mer enrichment (R)
UCCGGA	0.898
GUGUCG	1.18
UGGCAC	1

Series 3 — technique: universal PBM; form: double-stranded DNA, one strand shown; sample: in vitro; concentration: not given; direction: higher = stronger binding
Target: Sal-like protein 4, full length isoform B (SALL4, Homo sapiens, UniProt Q9UJQ4-2, residues 1-616)
Setting: 8-mer, flanks averaged, mean of replicates
Sequence	E-score
ATACTGAC	0.149
TAGTCACA	0.0849
AGATTAAC	0.14
AGCGCAAC	-0.0693
AACCGCCG	-0.27
ATAGTTAA	0.283
ATCTACGC	0.175

Single results of other studies
Molecule	target	assay	test system	setting	scale	quantity	value
PhoQ, residues 284 288 289 292 302 303 SLSLLA	PhoP, residues 12 14 15 18 19 LYFRQ (Escherichia coli, UniProt P23836)	Sort-seq, measured: YFP reporter	E. coli	PhoQ-PhoP variant library, together with: 10 µM Mg2+	baseline: high Mg2+ state, higher = stronger signaling	fold induction	3.45

For quick reference, copied from above (series 1):
Sequence	E-score
CTCCAAAG	-0.215
CTGCAAAC	-0.218
CATTCGAG	-0.0981
